{"data": "Published values gathered from unrelated publications", "BCHE": "Cholinesterase (BCHE, Equus caballus, UniProt P81908)", "MINK1": "Misshapen-like kinase 1 (MINK1, Homo sapiens, UniProt Q8N4C8)", "HRH2": "Histamine H2 receptor (HRH2, Homo sapiens, UniProt P25021)", "note": "Lines come from different studies, so protocols differ. ± gives the spread as reported.", "sequence of UniProt P81908 (whole entry, looked up)": "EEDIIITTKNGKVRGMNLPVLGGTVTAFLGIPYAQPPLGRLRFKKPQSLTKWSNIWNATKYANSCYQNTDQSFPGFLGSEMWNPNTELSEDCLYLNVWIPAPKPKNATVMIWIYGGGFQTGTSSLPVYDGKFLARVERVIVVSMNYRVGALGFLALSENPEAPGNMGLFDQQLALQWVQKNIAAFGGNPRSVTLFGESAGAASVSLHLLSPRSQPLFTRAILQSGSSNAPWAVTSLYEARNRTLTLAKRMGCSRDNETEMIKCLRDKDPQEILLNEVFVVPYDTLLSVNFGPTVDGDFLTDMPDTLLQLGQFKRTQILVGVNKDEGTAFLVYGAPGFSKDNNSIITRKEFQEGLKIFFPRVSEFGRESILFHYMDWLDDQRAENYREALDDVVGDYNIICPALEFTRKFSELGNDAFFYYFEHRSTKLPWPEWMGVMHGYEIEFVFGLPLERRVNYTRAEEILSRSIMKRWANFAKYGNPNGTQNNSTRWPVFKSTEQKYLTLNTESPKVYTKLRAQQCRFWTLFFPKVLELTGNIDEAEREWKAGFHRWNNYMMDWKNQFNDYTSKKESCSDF", "sequence of UniProt Q8N4C8 (whole entry, looked up)": "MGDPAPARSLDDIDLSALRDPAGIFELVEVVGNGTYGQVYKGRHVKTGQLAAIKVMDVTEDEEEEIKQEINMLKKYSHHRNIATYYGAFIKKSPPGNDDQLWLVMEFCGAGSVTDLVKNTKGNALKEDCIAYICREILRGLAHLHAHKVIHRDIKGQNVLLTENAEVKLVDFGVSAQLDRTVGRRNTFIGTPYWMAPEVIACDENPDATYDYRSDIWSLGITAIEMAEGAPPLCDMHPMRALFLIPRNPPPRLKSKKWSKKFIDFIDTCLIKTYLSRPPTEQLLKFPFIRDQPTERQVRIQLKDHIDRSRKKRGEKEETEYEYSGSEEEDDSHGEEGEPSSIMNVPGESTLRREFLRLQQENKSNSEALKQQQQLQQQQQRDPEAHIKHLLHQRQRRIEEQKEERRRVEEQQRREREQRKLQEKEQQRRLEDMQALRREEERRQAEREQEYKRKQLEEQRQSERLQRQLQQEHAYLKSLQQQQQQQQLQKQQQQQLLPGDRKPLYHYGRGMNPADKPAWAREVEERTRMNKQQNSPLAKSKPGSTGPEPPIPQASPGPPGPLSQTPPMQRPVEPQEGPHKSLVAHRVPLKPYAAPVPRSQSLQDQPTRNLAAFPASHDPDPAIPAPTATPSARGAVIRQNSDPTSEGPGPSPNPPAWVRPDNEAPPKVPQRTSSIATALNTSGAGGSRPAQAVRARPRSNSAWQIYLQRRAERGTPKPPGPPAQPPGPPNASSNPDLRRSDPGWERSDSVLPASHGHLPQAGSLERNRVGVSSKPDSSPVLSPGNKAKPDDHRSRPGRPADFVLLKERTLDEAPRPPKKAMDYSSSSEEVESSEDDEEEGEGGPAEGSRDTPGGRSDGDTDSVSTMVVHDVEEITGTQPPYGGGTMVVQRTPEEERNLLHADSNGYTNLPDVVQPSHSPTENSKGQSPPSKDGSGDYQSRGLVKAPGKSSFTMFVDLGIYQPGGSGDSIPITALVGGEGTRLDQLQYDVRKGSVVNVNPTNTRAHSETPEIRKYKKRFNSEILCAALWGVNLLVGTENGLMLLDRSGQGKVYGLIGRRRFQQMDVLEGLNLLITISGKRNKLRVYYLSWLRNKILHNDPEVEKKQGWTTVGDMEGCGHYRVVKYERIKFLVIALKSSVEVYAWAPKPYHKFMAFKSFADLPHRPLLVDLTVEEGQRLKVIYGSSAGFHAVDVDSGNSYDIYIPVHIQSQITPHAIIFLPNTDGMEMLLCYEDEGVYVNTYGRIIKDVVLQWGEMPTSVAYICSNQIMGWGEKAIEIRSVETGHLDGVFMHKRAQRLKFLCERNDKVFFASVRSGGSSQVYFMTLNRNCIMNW", "sequence of UniProt P25021 (whole entry, looked up)": "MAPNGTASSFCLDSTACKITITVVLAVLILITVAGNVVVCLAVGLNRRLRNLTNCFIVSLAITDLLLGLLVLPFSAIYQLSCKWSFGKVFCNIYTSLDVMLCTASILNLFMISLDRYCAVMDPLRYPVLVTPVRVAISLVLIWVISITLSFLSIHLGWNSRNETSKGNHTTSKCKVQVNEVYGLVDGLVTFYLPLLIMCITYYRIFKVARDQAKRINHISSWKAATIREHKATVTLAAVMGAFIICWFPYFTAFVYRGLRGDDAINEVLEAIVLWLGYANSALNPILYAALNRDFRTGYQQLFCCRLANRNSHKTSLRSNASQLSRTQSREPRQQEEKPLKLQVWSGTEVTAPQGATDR", "sequence of UniProt P25101 (whole entry, looked up)": "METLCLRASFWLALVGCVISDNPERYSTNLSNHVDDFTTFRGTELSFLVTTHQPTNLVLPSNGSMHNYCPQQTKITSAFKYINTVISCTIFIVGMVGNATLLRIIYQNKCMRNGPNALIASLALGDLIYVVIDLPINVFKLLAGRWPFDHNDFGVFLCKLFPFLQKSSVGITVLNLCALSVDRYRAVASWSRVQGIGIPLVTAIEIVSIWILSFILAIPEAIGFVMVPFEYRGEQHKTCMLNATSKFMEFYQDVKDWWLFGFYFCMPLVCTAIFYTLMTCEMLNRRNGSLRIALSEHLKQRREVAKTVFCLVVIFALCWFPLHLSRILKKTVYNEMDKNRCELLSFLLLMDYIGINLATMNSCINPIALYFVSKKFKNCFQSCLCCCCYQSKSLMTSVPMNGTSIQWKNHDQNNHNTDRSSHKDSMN", "sequence of UniProt O43318 (whole entry, looked up)": "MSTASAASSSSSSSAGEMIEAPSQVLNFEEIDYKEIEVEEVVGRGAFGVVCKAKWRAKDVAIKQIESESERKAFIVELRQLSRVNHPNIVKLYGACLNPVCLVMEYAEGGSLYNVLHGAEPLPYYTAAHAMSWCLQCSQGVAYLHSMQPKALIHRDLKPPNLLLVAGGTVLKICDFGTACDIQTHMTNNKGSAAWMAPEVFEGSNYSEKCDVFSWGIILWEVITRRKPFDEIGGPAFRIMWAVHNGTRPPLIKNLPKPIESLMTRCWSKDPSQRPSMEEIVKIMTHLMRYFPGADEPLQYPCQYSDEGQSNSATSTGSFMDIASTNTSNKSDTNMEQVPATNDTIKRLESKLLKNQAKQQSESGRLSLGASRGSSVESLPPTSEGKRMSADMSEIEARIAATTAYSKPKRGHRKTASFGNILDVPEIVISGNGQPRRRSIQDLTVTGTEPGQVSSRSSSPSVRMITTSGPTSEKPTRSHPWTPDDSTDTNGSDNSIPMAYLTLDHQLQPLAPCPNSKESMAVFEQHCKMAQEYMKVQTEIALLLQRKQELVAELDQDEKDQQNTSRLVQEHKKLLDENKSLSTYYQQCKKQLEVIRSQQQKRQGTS", "sequence of UniProt P47898 (whole entry, looked up)": "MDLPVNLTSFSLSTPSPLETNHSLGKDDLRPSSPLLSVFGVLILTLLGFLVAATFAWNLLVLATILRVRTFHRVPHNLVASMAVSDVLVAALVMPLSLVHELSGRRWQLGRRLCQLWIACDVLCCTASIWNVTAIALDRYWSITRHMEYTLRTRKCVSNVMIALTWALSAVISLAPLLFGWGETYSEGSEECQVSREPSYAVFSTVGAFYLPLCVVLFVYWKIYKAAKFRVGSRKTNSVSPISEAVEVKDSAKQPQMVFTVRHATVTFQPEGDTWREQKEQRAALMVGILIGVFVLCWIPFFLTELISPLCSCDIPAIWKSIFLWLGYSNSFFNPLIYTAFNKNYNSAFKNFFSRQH", "sequence of UniProt P19784 (whole entry, looked up)": "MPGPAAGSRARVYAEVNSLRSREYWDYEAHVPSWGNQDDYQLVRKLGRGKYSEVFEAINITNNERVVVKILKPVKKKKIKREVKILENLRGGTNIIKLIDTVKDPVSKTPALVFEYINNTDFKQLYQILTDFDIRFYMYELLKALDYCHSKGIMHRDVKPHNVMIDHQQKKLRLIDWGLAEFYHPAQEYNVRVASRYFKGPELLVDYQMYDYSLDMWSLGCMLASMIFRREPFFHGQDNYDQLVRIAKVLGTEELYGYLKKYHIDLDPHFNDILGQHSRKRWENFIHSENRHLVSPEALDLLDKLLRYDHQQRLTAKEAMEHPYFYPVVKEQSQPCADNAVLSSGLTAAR", "sequence of UniProt O43283 (whole entry, looked up)": "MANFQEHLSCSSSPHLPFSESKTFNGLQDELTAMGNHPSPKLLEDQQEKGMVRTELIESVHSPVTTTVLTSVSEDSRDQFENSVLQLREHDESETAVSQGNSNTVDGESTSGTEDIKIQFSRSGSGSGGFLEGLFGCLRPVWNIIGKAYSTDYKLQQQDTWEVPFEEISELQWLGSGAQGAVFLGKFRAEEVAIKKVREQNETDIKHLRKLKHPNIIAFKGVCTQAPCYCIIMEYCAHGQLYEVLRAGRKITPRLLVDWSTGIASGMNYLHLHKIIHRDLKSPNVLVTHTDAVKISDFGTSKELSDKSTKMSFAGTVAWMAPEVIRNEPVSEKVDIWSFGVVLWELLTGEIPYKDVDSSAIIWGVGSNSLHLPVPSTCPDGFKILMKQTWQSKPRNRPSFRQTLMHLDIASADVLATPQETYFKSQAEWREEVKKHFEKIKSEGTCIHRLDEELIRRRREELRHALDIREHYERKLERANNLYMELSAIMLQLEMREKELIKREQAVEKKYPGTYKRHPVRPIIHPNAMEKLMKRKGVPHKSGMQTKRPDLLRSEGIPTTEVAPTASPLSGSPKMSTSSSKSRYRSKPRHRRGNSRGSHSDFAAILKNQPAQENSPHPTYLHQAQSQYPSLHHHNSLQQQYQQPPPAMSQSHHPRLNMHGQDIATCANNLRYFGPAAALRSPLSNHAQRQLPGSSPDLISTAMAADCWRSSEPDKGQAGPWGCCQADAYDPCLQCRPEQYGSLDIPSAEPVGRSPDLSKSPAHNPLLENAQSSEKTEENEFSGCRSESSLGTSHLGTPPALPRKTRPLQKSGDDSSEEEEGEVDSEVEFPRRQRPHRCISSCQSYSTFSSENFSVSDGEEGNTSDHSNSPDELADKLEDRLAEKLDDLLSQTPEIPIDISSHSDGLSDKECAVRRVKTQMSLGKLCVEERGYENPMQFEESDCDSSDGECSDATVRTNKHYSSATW"}
{"Structure (SMILES)": "O=S(=O)(F)CCc1cn(-c2c(F)cccc2F)nn1", "target or system": "BCHE", "test": "enzyme activity, inhibitor, Ellman's method", "system": "horse serum BuChE", "conditions": "20 µM", "measurement": "inhibition", "value": "18.1 ± 2.2%"}
{"Structure (SMILES)": "N[C@H](C(=O)N1CCCC1)C1CCN(c2nccc3c(-c4ncc(Cl)cc4Cl)cccc23)CC1", "target or system": "CSNK2A2 (Homo sapiens, UniProt P19784)", "test": "kinase activity, inhibitor", "conditions": "10 µM, added: ATP 1 mM", "measurement": "inhibition", "value": "5.2%"}
{"Structure (SMILES)": "CN(C)[C@H]1C[C@@]23CC[C@@]4(O2)C(=CC[C@]2(C)[C@@H](c5ccc6ccncc6c5)CC[C@H]24)C=C3[C@@H](O)[C@@H]1O", "target or system": "MAP3K7 (Homo sapiens, UniProt O43318)", "test": "ATP probe labelling, inhibitor, KiNativ profiling", "conditions": "0.1 µM", "measurement": "inhibition", "value": "7.3%"}
{"Structure (SMILES)": "CN(/N=C/c1ccccc1C(=O)O)c1nc(-c2ccccc2Cl)cs1", "target or system": "MINK1", "test": "enzyme activity, inhibitor", "conditions": "1 µM", "measurement": "inhibition", "value": "-5.99%"}
{"Structure (SMILES)": "Cc1cc(-c2ccc3ccccc3c2)nnc1NCCN1CCN(C)CC1", "target or system": "Slc6a2 (Rattus norvegicus, UniProt Q9WTR4)", "test": "monoamine uptake, inhibitor", "system": "rat synaptosomes", "conditions": "10000 nM", "measurement": "inhibition", "value": "5.4%"}
{"Structure (SMILES)": "COc1ccccc1-c1n[nH]c2nc(NC3CCN(C(=O)Cc4ccc(F)cc4F)CC3)ncc12", "test": "bead binding, competition bead pull-down, refers to: LINJ.30.2340", "system": "Leishmania donovani axenic amastigote extract", "conditions": "10 µM", "scale": "baseline: vehicle", "measurement": "relative abundance", "value": 1.04}
{"Structure (SMILES)": "Cc1ccc2c(n1)c(-c1cccc(S(C)(=O)=O)c1)c(C)n2C/C(F)=C/CN", "target or system": "ADRA2B (Homo sapiens, UniProt P18089)", "test": "off-target safety screen", "conditions": "10 µM", "measurement": "inhibition", "value": "25%"}
{"Structure (SMILES)": "O=C1NC2(CC2)COc2ncc(F)cc2[C@H]2COCCN2c2ccn3ncc1c3n2", "system": "Sprague-Dawley rat, female, kidneys", "conditions": "oral, 2.5 mg/kg/day, 4 weeks dosing, end of recovery", "measurement": "organ-to-body weight ratio", "value": "0.621 ± 0.03%"}
{"Structure (SMILES)": "C[C@H](NCc1ccc(-c2ccc(C(F)(F)F)cc2)cc1)C(N)=O", "target or system": "MAP3K9 (Homo sapiens, UniProt P80192)", "test": "cell-free assay, competition with immobilised ligand", "conditions": "1 µM", "measurement": "inhibition", "value": "9%"}
{"Structure (SMILES)": "NC1CCCCC1", "target or system": "BCHE", "test": "enzyme activity, inhibitor, Ellman", "conditions": "20 µM", "measurement": "inhibition", "value": "32.1%"}
{"Structure (SMILES)": "CC(C)[C@H]1NC(=O)C[C@H]2/C=C/CCSSC[C@@H](NC1=O)C(=O)N[C@H](Cc1cccc3ccccc13)C(=O)NCC(=O)O2", "target or system": "MINK1", "test": "enzyme activity, inhibitor", "conditions": "10 µM", "measurement": "inhibition", "value": "3.6%"}
{"Structure (SMILES)": "O=C(CN1CN(c2ccccc2)C2(CCN(C(=O)c3cnc4[nH]ncc4c3)CC2)C1=O)NCC(F)(F)F", "target or system": "MAP3K13 (Homo sapiens, UniProt O43283)", "test": "inhibitor", "conditions": "concentration not given", "measurement": "inhibition", "value": "< 50%"}
{"Structure (SMILES)": "OC[C@H]1O[C@@H](Oc2cccc(-c3ccccc3)c2)[C@H](O)[C@@H](O)[C@H]1O", "target or system": "Adhesin FmlH, lectin domain (Escherichia coli, UniProt Q1RBS0)", "test": "binding to desialylated mucin, ELISA competition", "system": "UPEC UTI89", "conditions": "100 µM", "measurement": "inhibition", "value": "56.9 ± 6.2%"}
{"Structure (SMILES)": "CS(C)(=O)=Nc1ccc(-c2ccc(-c3nc4cc(O[C@@H]5CO[C@H]6[C@@H]5OC[C@H]6O)[nH]c4cc3F)cc2)cc1", "target or system": "GABA-gated chloride channel", "test": "binding", "conditions": "10 µM", "measurement": "inhibition", "value": "30%"}
{"Structure (SMILES)": "COc1ccc(F)cc1S(=O)(=O)Nc1cnc2c(c1)C(=O)NCCO2", "target or system": "N-type calcium channel", "test": "radioligand binding", "conditions": "10 µM", "measurement": "inhibition", "value": "-2%"}
{"Structure (SMILES)": "O=C1c2ccccc2CCCN1CCCCN1CCN(c2cccc(Cl)c2Cl)CC1", "target or system": "HTR5A (Homo sapiens, UniProt P47898)", "test": "radioligand binding", "conditions": "concentration not given, added: [3H]LSD", "measurement": "inhibition", "value": "87.8%"}
{"Structure (SMILES)": "Cc1cc(Nc2nc(C[C@@]3(C(=O)O)CCN(Cc4cccc(Cl)c4F)[C@H](C)C3)cc(C)c2F)[nH]n1", "target or system": "HRH2", "test": "inhibitor", "conditions": "10 µM", "measurement": "inhibition", "value": "-3.71%"}
{"Structure (SMILES)": "O=C(O)c1ccccc1/C=N/Nc1nc(-c2ccccc2Cl)cs1", "target or system": "Cyclin-dependent kinase 18, with cyclin Y (CDK18, Homo sapiens, UniProt Q07002)", "test": "enzyme activity, inhibitor", "conditions": "1 µM", "measurement": "inhibition", "value": "-1.57%"}
{"Structure (SMILES)": "CN[C@@H]1[C@H](O)[C@H](NC)[C@H]2O[C@]3(O)[C@H](O[C@@H]2[C@H]1O)O[C@H](C)C[C@H]3NC(=O)Cc1ccc(Cl)cn1", "target or system": "HRH2", "test": "ligand displacement, radioligand", "conditions": "10 µM", "measurement": "inhibition", "value": "20%"}
{"Structure (SMILES)": "Cc1cc(OCC(=O)NCCNC(=O)c2cccc(COc3ccccc3C(N)=O)c2)c2c3c(c(=O)oc2c1)CCC3", "target or system": "PARP2 (Homo sapiens, UniProt Q9UGN5)", "test": "enzyme activity, inhibitor", "conditions": "5 nM", "measurement": "inhibition", "value": "8%"}
{"Structure (SMILES)": "CCc1nnc(-c2c(OC)cc(-c3cnc4cc(-c5cnn(C)c5)ccn34)cc2OC)o1", "target or system": "EDNRA (Homo sapiens, UniProt P25101)", "test": "agonist radioligand, radioligand binding", "conditions": "10 µM, SafetyScreen44 ETA", "measurement": "inhibition", "value": "4%"}
{"Structure (SMILES)": "CC(=O)NC[C@@H]1[C@@H](O)C[C@H]2[C@H](O)C[C@@H](CO)N12", "target or system": "Spodoptera litura β-N-acetylglucosaminidase", "system": "crude enzyme", "conditions": "0.428 µM, run 2, added: p-nitrophenyl GlcNAc", "measurement": "inhibition", "value": "49.8%"}
{"Structure (SMILES)": "Fc1cccc(CN2CCNCC2)c1", "target or system": "BCHE", "test": "enzyme activity, inhibitor, Ellman", "conditions": "20 µM", "measurement": "inhibition", "value": "31.4%"}
